Experimental data gathered from unrelated publications.
Numbered parts are unrelated; each lists some results of a single study.

Study 1 — technique: RNA Bind-n-Seq; form: RNA; matrix: in vitro; concentration: 365 nM; relative to: no-protein control; direction: higher = stronger binding
Target: RNA binding protein fox-1 homolog 2, RRM domain, GST-SBP tag (RBFOX2, Homo sapiens, UniProt O43251-10, residues 100-194)
Notes: natural RNA segment, single round, ends assumed
Constant ends, left off below: GGGAGUUCUACAGUCCGACGAUC … UGGAAUUCUCGGGUGCCAA
Residues (chain): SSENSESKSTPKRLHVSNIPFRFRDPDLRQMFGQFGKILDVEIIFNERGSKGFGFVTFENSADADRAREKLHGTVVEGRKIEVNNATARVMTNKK
`AAGCCAGCCUCACCAACAACACCAUGUCUGCUCAGCAGUAUGCAGAUAUGUGGGGAUAGUCUCUCAGGCUGGCAUGGGCCCCUUUCUGCUAUGCGCCCUAUUAGGAAGAG`: “RBNS enrichment (R)” 0.901.
`CUGACCAGGCCCCUCCCCUAAGACUUCUUGGAUAUUUCCCAGGAGAAUCCCACAUUCACCGCCAAACCCCUAUCCCUACCCAACACAAGCUGCCCUCCUGAAAGGCAAGG`: “RBNS enrichment (R)” 0.877.
`CCCAAGCAAAUCCUGCAUAUUCCAAAUGUAAAGAGUACUCAGUGGGAAAAAGGUUGUUACCUCAAAGUCAUUGCUUCUUUCCUGGCUGGGUCACAGGGUGAAGAGAUGAA` — result for “RBNS enrichment (R)”: 0.34.
`AAUAAACCUGCAGUUUAACAGAAUUUUGUAUUAAAUGGGGGAGUGUCAAUUUGCAUCAUUUGCAUAUUGAUUUCAAGUCUCCUAAUUUGGAAUGGGUAAAGUACAAAUGU` — result for “RBNS enrichment (R)”: 1.29.
`UUAGGCAGACGUACUUGUCUCCACUCCCCACUCCAUCUCAGCCCAACUCCAGACACCCUAGGGCUGACCAGCUCCAUUGAGACCCUGUUAUUUCUCUGCUUUUCUCUUUC`: “RBNS enrichment (R)” 0.948.
`GCCCCAUCUAUAUUAAAGGAAUCCUGUCUUUUUUUGUUUGUUUGUUUUUAAAUAUUGUGAUGUUUUAAGAGCCGAUGCUGGCUUCUUUUUUGCAUGUUACAGUUUUCUGG`: “RBNS enrichment (R)” 18.4.
`UAGUUUUUGAAAUUUUUAUUUAUAUGUAUACUUAGAUGAGUAUUUUAAGCUGUCGACCUUUAGUUUGCCAUACGGGUAGGACUGUAUUUCAUGUUAACAACUGGUGGUAA` — result for “RBNS enrichment (R)”: 1.18.
Under “RBNS enrichment (R)”, `AUGGAAGCUCACCUCUAAGAAAGGGCUGGGCAGAUGGAUUUAUUUUUUCCCACCUGUGAAUAUGUAAAACAAAACCAUUAUCUUUGAGGGAGUUUUUAAUACCAAUGACA` is recorded as 0.388.

Study 2 — technique: aptamer microarray, sandwich; form: DNA with 2'F-ANA; matrix: in vitro; concentration: 200 nM; with: Cy3 exosite-II aptamer, 400 nM; direction: higher = stronger binding; sequence: GGTTGGTGTGGTTGG
Target: Prothrombin, mature alpha-thrombin (F2, Homo sapiens, UniProt P00734)
Notes: whole 15-mer aptamer, many near background
For `2'F-ANA at 4 5 10 11 12 15`, “mean fluorescence intensity” read 49.4 a.u.
For `2'F-ANA at 1 6 9 10 11 15`, “mean fluorescence intensity” read 81.3 a.u.
`2'F-ANA at 1 4 6 10 11 12 14` — result for “mean fluorescence intensity”: 48.6 a.u.
For `2'F-ANA at 1 6 9`, “mean fluorescence intensity” read 173 a.u.
Under “mean fluorescence intensity”, `2'F-ANA at 3 4 5 7 9 11 12 13 15` is recorded as 104 a.u.
`2'F-ANA at 1 4 6 7 9 13 14` — result for “mean fluorescence intensity”: 211 a.u.
Under “mean fluorescence intensity”, `2'F-ANA at 2 3 5 6 7 10 12 15` is recorded as 58.1 a.u.
For `2'F-ANA at 1 3 4 8 9 11 12 14`, “mean fluorescence intensity” read 74.4 a.u.
For `2'F-ANA at 1 2 4 5 6 7 8 9 12 14 15`, “mean fluorescence intensity” read 52.3 a.u.
`2'F-ANA at 1 2 3 9 11 12` — result for “mean fluorescence intensity”: 372 a.u.
Under “mean fluorescence intensity”, `2'F-ANA at 1 2 5 8 9 11 12` is recorded as 124 a.u.
Under “mean fluorescence intensity”, `2'F-ANA at 2 9 10 11 12 15` is recorded as 144 a.u.
Under “mean fluorescence intensity”, `2'F-ANA at 1 2 7 8 9 11 13 14 15` is recorded as 55.1 a.u.
For `2'F-ANA at 2 3 4 8 10 12 13 14 15`, “mean fluorescence intensity” read 173 a.u.
`2'F-ANA at 4 6 8 10 12 13 14 15`: “mean fluorescence intensity” 57.7 a.u.
`2'F-ANA at 2 3 4 6 7 8 9 12 14 15` — result for “mean fluorescence intensity”: 261 a.u.
Under “mean fluorescence intensity”, `2'F-ANA at 1 2 3 4 6 7 8 9 12 14 15` is recorded as 77.1 a.u.

Study 3 — technique: protein binding microarray; form: double-stranded DNA, one strand shown; matrix: in vitro; concentration: not given; relative to: not given; direction: higher = stronger binding
Target: Histone acetyltransferase KAT6A, winged helix 2, GST fusion (KAT6A, Homo sapiens, UniProt Q92794, residues 85-181)
Notes: 8-mer, flanks averaged, mean of 2 arrays, mostly near background
Construct (chain): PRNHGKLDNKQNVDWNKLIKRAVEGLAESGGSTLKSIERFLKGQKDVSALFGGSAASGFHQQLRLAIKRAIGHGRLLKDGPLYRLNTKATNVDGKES
With `CTGGTGCA` the E-score was -0.0434.
With `CAAGCTTC` the E-score was 0.00927.
The E-score of `TCAAAGCA` is reported as 0.157.
With `AAGCCAAA` the E-score was 0.07.
The E-score of `TGCCTAAA` is reported as 0.021.
For `CAATTCAC`, the E-score was 0.00721.
With `ATTGAGGC` the E-score was 0.0776.
With `CGACGGAA` the E-score was 0.00571.
For `CACGTCCA`, the E-score was -0.216.
The E-score of `CGAATACA` is reported as -0.00135.
`GATACGGC` gave an E-score of -0.0317.
With `AAACGGCT` the E-score was -0.102.
With `TCACACAA` the E-score was 0.0634.
With `CGAGAGTA` the E-score was 0.0758.
The E-score of `AGGAAACG` is reported as -0.0862.
With `ATCAAATA` the E-score was -0.115.
With `ACACGTTG` the E-score was -0.113.
`ATACACGA` has an E-score of 0.0338.
The E-score of `GGTTGTCA` is reported as -0.0976.
`ACGAGATC` has an E-score of -0.0549.
`TAGTGAAA` gave an E-score of 0.0244.
The E-score of `TAGGTATA` is reported as 0.0105.
`AAACGCCT` has an E-score of -0.188.
The E-score of `GCCAAGCA` is reported as -0.0108.
The E-score of `CGATACAG` is reported as -0.0697.

Study 4 — technique: protein-binding microarray; form: double-stranded DNA, one strand shown; matrix: in vitro; concentration: 250 nM; notes: 60-bp whole probe; with: salmon DNA 0.4 mg/ml; relative to: random background probes; direction: higher = stronger binding; constant ends, left off below: GCCTAGCAC … GTCTTGATTCGCTTGACGCTGCTG
Target: Interferon regulatory factor 7, full length, phosphomimetic (IRF7, Homo sapiens, UniProt Q92985, residues 1-503, S101K/S471D/S472D/S475D/S476D/S477D/S483D/S484D/S487D)
Target sequence (chain): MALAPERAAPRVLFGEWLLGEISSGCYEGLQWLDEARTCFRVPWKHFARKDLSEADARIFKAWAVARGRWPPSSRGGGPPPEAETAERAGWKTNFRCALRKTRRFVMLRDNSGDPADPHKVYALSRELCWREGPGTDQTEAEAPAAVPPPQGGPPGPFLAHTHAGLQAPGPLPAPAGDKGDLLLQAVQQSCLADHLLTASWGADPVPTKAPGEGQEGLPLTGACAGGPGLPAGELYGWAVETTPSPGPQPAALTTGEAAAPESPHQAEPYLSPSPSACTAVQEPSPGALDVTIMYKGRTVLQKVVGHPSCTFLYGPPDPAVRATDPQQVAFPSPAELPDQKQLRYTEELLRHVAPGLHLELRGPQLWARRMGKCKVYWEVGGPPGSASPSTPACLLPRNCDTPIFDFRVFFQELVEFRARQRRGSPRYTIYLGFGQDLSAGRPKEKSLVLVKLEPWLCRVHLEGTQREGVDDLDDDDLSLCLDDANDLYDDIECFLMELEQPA
The log fluorescence of `TTAGAGATCAGTCTCGATTAGTGCTAG` is reported as 1.11 z-score.
The log fluorescence of `TTAGGTATCGGGTACCGGTTAGTGCTA` is reported as 0.93 z-score.
`TTAGCTATCGACTTTCGGTTAGTGCTA` gave a log fluorescence of 0.716 z-score.
`TCACGTAAGCAAAAATGACTGTGCTAG` has a log fluorescence of -0.454 z-score.
With `GACGGTTTGGGGTATCGGGACGTGCTA` the log fluorescence was 0.0178 z-score.
With `TCAGATTTCGGGTATCGATTAGTGCTA` the log fluorescence was 1.75 z-score.
The log fluorescence of `TTAGGTTTCCTTTGCCTTTAGTGCTAG` is reported as 2.33 z-score.
The log fluorescence of `TTAGGTATCGACTATCGGTTTGTGCTA` is reported as 0.502 z-score.
For `GACGATCTAAGTTTCGAGACGTGCTAG`, the log fluorescence was 3.96 z-score.
`TTAGGTTTCTGTATCGGTTAGTGCTAG` gave a log fluorescence of 3.37 z-score.
`TTAGGTTCCGCTTTCGGTTAGTGCTAG` gave a log fluorescence of 6.56 z-score.
`TTGGGTTTCGGTTTCGGTTAGTGCTAG` gave a log fluorescence of 14.2 z-score.
`TTTACTTTCTTTTTTTCTTTGTGCTAG` gave a log fluorescence of 2.41 z-score.
`TTGTGTCTGGGCTTTTTCCCCGTGCTA` gave a log fluorescence of -1.14 z-score.
`TTAGGTATGGGTATCGGTTAGTGCTAG` gave a log fluorescence of 0.858 z-score.
`GACTATATCAGTCTCGAGACGTGCTAG` gave a log fluorescence of 0.555 z-score.
`TCATCTCGGAGATCTCGAACTGTGCTA` gave a log fluorescence of 0.00998 z-score.
With `GATTTTTTCTGCTTAGAGCTGTGCTAG` the log fluorescence was 0.577 z-score.
`TAATTTTTACTTTCTGAATGGTGCTAG` gave a log fluorescence of 1.04 z-score.

Some of these lines once more (study 3):
With `TCACACAA` the E-score was 0.0634.
With `CGAGAGTA` the E-score was 0.0758.
The E-score of `AGGAAACG` is reported as -0.0862.
With `ATCAAATA` the E-score was -0.115.
With `ACACGTTG` the E-score was -0.113.
`ATACACGA` has an E-score of 0.0338.
